# Measurements gathered from unrelated publications.
# Every numbered part comes from another study and shows a few of its results, in no order.

# Study 1
# Target: RING finger protein unkempt homolog, zinc fingers 1-6, GST-SBP tag (UNK, Homo sapiens, UniProt Q9C0B0, residues 30-357)
# UniProt Q9C0B0, sequence (30-357, looked up): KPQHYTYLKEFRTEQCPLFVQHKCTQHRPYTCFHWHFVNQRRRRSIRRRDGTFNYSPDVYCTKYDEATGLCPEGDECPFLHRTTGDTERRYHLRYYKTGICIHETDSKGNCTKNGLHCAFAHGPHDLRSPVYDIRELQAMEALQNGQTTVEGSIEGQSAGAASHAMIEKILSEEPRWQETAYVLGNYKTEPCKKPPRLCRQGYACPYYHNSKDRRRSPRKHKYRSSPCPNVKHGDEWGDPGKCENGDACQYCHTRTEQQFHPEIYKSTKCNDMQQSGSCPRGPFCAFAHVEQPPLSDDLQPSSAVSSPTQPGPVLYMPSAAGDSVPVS
# Technique: RNA Bind-n-Seq
# Form: RNA
# Sample: in vitro
# Tested at: not given
# Notes: RNA with constant flanks, human and mouse sites, ends assumed
# Relative to: input RNA pool
# Direction: higher = stronger binding
Strand,bound/input enrichment [ratio]
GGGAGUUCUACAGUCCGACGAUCCAAGUAUUUUAAUUUAAGUUCAGUGAACUUUUUUGUAGCUGGGUUAAAUCUUUUUAUUUUUAGUAUGGCCUUAUGGCAAAGAACACUGUAUUAUUUUAAUAAUCACACGAUUGUGACGGACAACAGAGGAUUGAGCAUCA,6.6
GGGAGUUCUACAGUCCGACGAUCCAUGCACACAAGUCCCCCUACUGCUGCCCGGAGUGCGGUGUCCUCUGUCGCUCUGCUUACUUCCAGACUCACGUAAAGGAGAAUUGCCUGCACUAUGCCCGAAAAGUGGGCUACAGGUGCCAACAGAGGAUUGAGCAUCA,0.383
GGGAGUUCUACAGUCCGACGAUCAUUGCCCCGGCAUCUGUCUUUGCUGGGGACUUAAGCUACGCCAUUGCUGGGUUGGUAUUUUUAGAAUACAAAGCCAGUGCACAGUGGUCUGCAGAGCUCUUGGUCAUCAAUUACCGGGGACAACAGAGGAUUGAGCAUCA,0.142
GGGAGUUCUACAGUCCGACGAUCAGAAAGAUGGAAGAAAAAUACCAACUAACAGCACGAUUGAACAUGGAACAGCUGCUUCAGUCUGCAAGUAUGGAGCUCAAGUUCUUAAUUAUUCAGAAUGCUGCGGUUUUCCAAGAGGCCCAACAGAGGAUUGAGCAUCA,0.12
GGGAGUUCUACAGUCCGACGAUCGAGGCCAUUGAAUUGCCAAUGGAUCCAAAGUUGAACAAAAGACGAGGUUUUGUGUUUAUCACCUUUAAAGAAGAAGAACCCGUGAAGAAGGUUCUGGAGAAAAAGUUCCAUACUGUCAGUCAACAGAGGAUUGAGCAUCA,0.165
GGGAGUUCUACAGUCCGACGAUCGUCACCCCAAAGGAAUGGAGAGAUCAGUAGUCGUGCCAGCUGGUACAAUAAUCAAGGAAUUGUUUAAAACCAACUUAUAAGUGAAUGCCAAGUCAAAGAAUCAUGUACUCAUUAUACUAUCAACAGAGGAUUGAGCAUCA,0.31
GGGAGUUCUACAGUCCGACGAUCUUUUUUGGGGGUGGAUUUCCUUCAGGUAGUGUACAUUCUUUUUCAAAUGGAAGAGCUGGUUAUAGCCAACAACAUCAGCAUCGACAUAGUGGACAUGAAAGAGAAGAGGAAAGAGGAGAUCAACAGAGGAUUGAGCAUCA,1.59
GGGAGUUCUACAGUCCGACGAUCGAGACAACAUUGGCAUGGCUUUGUUUUUUUAAAUUUUUUUUAAAGUUUUUUUUUUUUUUUUUUUUUUUUUUUUUAAGUUUUUUUGUUUUGUUUUGGCGCUUUUGACUCAGGAUUUAAAAACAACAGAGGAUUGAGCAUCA,3.36

# Study 2
# Target: Ras GTPase-activating protein-binding protein 1, RRM domain (G3BP1, Homo sapiens, UniProt Q13283)
# UniProt Q13283, sequence (whole entry, looked up): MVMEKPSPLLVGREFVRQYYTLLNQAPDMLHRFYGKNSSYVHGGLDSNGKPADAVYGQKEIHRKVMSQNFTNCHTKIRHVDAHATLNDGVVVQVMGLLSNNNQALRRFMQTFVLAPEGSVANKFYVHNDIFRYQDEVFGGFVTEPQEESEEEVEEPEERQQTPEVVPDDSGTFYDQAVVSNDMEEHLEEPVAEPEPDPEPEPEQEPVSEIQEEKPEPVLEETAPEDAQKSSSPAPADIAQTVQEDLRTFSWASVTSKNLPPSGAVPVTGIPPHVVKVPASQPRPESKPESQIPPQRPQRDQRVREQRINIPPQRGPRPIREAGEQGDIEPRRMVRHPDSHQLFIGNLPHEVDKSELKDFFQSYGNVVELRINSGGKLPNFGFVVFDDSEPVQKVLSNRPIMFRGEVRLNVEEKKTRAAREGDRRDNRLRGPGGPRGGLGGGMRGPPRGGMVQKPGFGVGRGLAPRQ
# Technique: RNA Bind-n-Seq
# Form: RNA
# Sample: in vitro
# Tested at: 1 µM
# Notes: whole 134-nt RNA, ends assumed
# Together with: 150 mM KCl
# Relative to: input library
# Direction: higher = stronger binding
Strand,log2 enrichment
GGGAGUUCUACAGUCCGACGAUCUUUGCAGAGCAGUCUCUGAUGAAGAAUGCCAUAAAAACAUCGGAGGAGUCAUGGAUUGAACAGCAGAUGCUAGAAGACAAGAAACGGGCCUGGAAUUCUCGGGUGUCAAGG,0.101
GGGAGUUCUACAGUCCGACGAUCUGGCCCUGGUGUCAUGCGGGGAGGAAGAGGUGGCCUCAUGGAUCGUGGUGGUCCCGGUGGAAUGUUCAGAGGUGGCCGUGGUGGAGACAGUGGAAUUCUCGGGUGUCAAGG,0.846
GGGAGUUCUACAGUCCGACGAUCGUCCUGUGCUACACAUCGUAUGUACCGAAUCGGGGUUUUUGGUUUUUGGGGUUUUUGGGAAAGUAUUAUGUUACGCCGUUCGGAUCUGCAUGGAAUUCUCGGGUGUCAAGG,-0.139
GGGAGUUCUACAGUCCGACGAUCUCCUGUGCUACACAUCGUAUGUACCGAAUCGGGUUUUUUGGUUUUUUGGGUUUUUUGGGGAAAGUAUUAUGUUACGCCGUUCGGAUCUGCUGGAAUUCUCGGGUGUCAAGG,-0.201
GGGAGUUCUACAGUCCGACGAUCCUGUGCUACACAUCGUAUGUACCGAAUCGGCCCCCCCGGCCCCCCCGGGGCCCCCCCGGGGAAAGUAUUAUGUUACGCCGUUCGGAUCUGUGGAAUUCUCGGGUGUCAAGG,-0.704
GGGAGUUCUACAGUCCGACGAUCGUCCUGUGCUACACAUCGUAUGUACCGAAUCGGGGAGGGGUUUUUGGGGAAAAAGGGGAAAGUAUUAUGUUACGCCGUUCGGAUCUGCACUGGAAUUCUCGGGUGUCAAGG,0.811
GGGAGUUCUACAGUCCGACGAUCUCCUGUGCUACACAUCGUAUGUACCGAAUCAAAUUUUUAAACCCCCCCAAACCCCCAAAAAAGUAUUAUGUUACGCCGUUCGGAUCUGCAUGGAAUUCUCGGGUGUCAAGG,-0.571
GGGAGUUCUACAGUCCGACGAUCCAAGUCCUGUGCUACACAUCGUAUGUACCGAAUCGGGGAAAAGGAAAAGGAAAAGGAAAGUAUUAUGUUACGCCGUUCGGAUCUGCACUUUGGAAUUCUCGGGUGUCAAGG,-0.205
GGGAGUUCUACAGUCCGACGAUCUCAAGUCCUGUGCUACACAUCGUAUGUACCGAAUCGGGUUUUUGGGAGGGUGGGAAAGUAUUAUGUUACGCCGUUCGGAUCUGCACUUCCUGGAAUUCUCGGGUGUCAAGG,0.55

# Study 3
# Target: Interferon regulatory factor 7, full length, phosphomimetic (IRF7, Homo sapiens, UniProt Q92985, residues 1-503, S471D/S472D/S475D/S476D/S477D/S483D/S484D/S487D)
# UniProt Q92985, sequence (whole entry, unmodified, looked up): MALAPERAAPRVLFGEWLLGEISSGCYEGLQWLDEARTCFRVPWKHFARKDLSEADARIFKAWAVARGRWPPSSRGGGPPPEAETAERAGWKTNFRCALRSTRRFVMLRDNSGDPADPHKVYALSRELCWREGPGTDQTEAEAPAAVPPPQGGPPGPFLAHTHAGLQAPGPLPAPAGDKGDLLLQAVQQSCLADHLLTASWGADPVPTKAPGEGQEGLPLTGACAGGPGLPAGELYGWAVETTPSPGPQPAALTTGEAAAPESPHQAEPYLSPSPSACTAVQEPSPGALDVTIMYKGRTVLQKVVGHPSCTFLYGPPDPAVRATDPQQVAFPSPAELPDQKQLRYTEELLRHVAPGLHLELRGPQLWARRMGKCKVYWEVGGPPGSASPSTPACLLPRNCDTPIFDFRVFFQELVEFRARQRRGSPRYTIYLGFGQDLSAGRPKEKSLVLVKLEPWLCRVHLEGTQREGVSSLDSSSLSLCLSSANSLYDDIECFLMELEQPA
# Technique: protein-binding microarray
# Form: double-stranded DNA, one strand shown
# Sample: in vitro
# Tested at: 2200 nM top
# Notes: 60-bp whole probe
# Together with: salmon DNA 0.4 mg/ml
# Relative to: random background probes
# Direction: higher = stronger binding
# All sequences stand within: GCCTAGCAC … GTCTTGATTCGCTTGACGCTGCTG
Strand,fitted relative affinity [z-score]
GACGGTATCGGGTATGGGGACGTGCTA,-0.238
TTAGATTGCAGTATCGATTAGTGCTAG,0.276
TCATGCATCTATCTTAAACTGTGCTAG,0.815
GACGGTATCGACACTGGCGACGTGCTA,-0.255
TTAGATATCTGGACTGGATTAGTGCTA,-0.403
TTAGGTTTCCTTCTCCTTTAGTGCTAG,2.36
TTAGGATCCCTTTTCCTTTAGTGCTAG,2.15
CTTTATTTAAGCTCCTATCTTGTGCTA,0.613
TTCAATTCCTGAAATCTCTTTGTGCTA,0.577
TTAGGTTTCGACTGTCGGTTAGTGCTA,3.13
TGCTTCCTCTTTCTCTGCTAGTGCTAG,3.65
TCAAATTGTCTTTTCACACTGTGCTAG,0.939
TTAGGTATCGACACTGGGATAGTGCTA,-0.126
TTAGATTCCGGGTTTCGATTAGTGCTA,4.13
TAACTTTCCAATTGTCCTTTCGTGCTA,5.39
TCATGGCTGACTTTGGAACTGTGCTAG,-0.224

# Study 4
# Target: Histone acetyltransferase KAT6A, winged helix 1, GST fusion (KAT6A, Homo sapiens, UniProt Q92794, residues 1-85)
# Technique: protein binding microarray
# Form: double-stranded DNA, one strand shown
# Sample: in vitro
# Tested at: not given
# Notes: 8-mer, flanks averaged, mean of 2 arrays, mostly near background
# Relative to: not given
# Direction: higher = stronger binding
# Construct (chain): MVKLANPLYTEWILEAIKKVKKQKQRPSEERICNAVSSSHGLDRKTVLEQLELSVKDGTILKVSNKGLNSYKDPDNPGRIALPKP
Strand,E-score
CCGGCGTA,0.381
AGCAGAAA,-0.137
ATGATAAC,-0.152
CCACTTAA,-0.202
TACCATGA,-0.146
ATTTGCAG,-0.276
ACAGAACG,-0.0195
GCCCCTAC,-0.0183
ACTGTTTC,0.105
GCTTATCA,-0.126
ATGCTCAA,-0.241
GCAGAACA,-0.0811
ATCTACGC,0.239
GGGGTTTA,-0.0507
GTTAAACA,-0.0993
ACGCTCAT,-0.0497
CGTTAGAA,-0.165
ACCGTACC,0.186
AATCAAGA,-0.148
CTGTTTGA,-0.265
GGGAGGTA,0.0354
AACGGACG,0.241
AGCATCTG,-0.181
AGCTCTGC,-0.187
CCGCCACC,0.243

# Excerpt of the above (study 4):
Strand,E-score
ATGATAAC,-0.152
CCGGCGTA,0.381
AACGGACG,0.241
GGGAGGTA,0.0354
